{"data": "Assay results of several laboratories", "organism": "Staphylococcus aureus", "note": "Numbers after ± are the reported error."}
{"Substance": "CCc1cc(=O)c2c(OCC(O)CN3CCC(C)CC3)c3ccoc3c(OC)c2o1 (stereo not shown)", "assay": "microbial growth, broth dilution", "test system": "ATCC6538", "conditions": "19 h", "MIC": "> 256 µg/mL"}
{"Substance": "O=C(Cc1ccccc1F)N1CCC(c2ccccc2)C1 (stereo not shown)", "test system": "various strains incl. MRSA", "MIC": "≥ 50 µg/mL"}
{"Substance": "Cc1ccc(C=Nc2nc[nH]n2)c(O)c1", "assay": "broth microdilution", "test system": "MRSA2, methicillin-resistant", "conditions": "16 to 24 h", "MIC": "64 µg/mL"}
{"Substance": "CCCCCCC/C=C/C(=O)N1C(=O)/C(=C(\\O)C2CCNCC2)C(=O)C1CC(C)C (stereo not shown)", "assay": "microbial growth, broth dilution", "test system": "MSSA NEWMAN", "MIC": "50 µg/mL"}
{"Substance": "N[C@@H]1CON=C1O", "test system": "MRSA", "MIC": "12.5 µg/mL"}
{"Substance": "COc1cc2cc(-c3cccc(-c4ccc(-c5ccccc5)cc4)c3)[n+](C)c(C)c2cc1OC.[I-]", "assay": "broth microdilution", "test system": "ATCC 33591 MRSA, broth with 2% NaCl", "conditions": "24 h, 37 °C", "MIC": "1 to 8 µg/mL"}
{"Substance": "C/C(O)=C1\\C(=O)C(CC(C)C)N(C(=O)C=Cc2ccccc2)C1=O (stereo not shown)", "assay": "microbial growth, broth dilution", "test system": "MSSA NEWMAN", "MIC": "12.5 µg/mL"}
{"Substance": "CC1(C)S[C@@H]2[C@H](NC(=O)[C@H](N)c3ccccc3)C(=O)N2[C@H]1C(=O)O", "assay": "serial dilution", "test system": "ATCC 25923", "conditions": "24 h, 37 °C", "MIC": "5 ± 0.7 µg/mL"}
{"Substance": "CCc1cc(=O)c2c(OCC(O)CNC(C)C)c3ccoc3c(OC)c2o1 (stereo not shown)", "assay": "microbial growth, broth dilution", "test system": "ATCC29", "conditions": "19 h", "MIC": "> 256 µg/mL"}
{"Substance": "O=C(O)c1ccc(C=Nc2ncn[nH]2)cc1", "assay": "microbial growth, broth dilution", "test system": "ATCC29213", "MIC": "256 µg/mL"}
{"Substance": "CC(=O)NC[C@H]1CN(c2ccc(N3CCOCC3)c(F)c2)C(=O)O1", "assay": "broth microdilution", "test system": "USA300 LAC", "conditions": "5% human serum", "MIC": "8 µM"}
{"Substance": "gentamicin", "test system": "JE2 MRSA", "conditions": "18 h, pH 7", "MIC": "0.5 µg/mL"}
{"Substance": "O=[N+]([O-])c1ccc(C=Nc2nc[nH]n2)c(O)c1", "assay": "microbial growth, broth dilution", "test system": "ATCC29213", "MIC": "32 µg/mL"}
{"Substance": "CCc1cc(=O)c2c(OCC(O)CN3CCCCC3)c3ccoc3c(OC)c2o1 (stereo not shown)", "assay": "microbial growth, broth dilution", "test system": "ATCC25", "conditions": "19 h", "MIC": "> 256 µg/mL"}
{"Substance": "CCCCCCCCCCCCn1sc2ccccc2c1=O", "conditions": "panel of 28 strains", "MIC": "0.25 to 62.5 µg/mL"}
{"Substance": "COc1ccccc1C1CCN(C(=O)Cc2cccc(F)c2F)C1 (stereo not shown)", "test system": "various strains incl. MRSA", "MIC": "≥ 50 µg/mL"}
{"Substance": "C(=Nc1ncn[nH]1)c1ccc(-c2ccccc2)cc1", "assay": "broth microdilution", "test system": "MRSA2, methicillin-resistant", "conditions": "16 to 24 h", "MIC": "128 µg/mL"}
{"Substance": "CCc1cc(=O)c2c(OCC(O)CN(CC)CC)c3ccoc3c(OC)c2o1 (stereo not shown)", "assay": "microbial growth, broth dilution", "test system": "ATCC6538", "conditions": "19 h", "MIC": "> 256 µg/mL"}
{"Substance": "teicoplanin aglycone", "test system": "ATCC 6538P glycopeptide sensitive", "conditions": "18 h, 37 °C", "MIC": "1 µg/mL"}
{"Substance": "Oc1ccc(C=Nc2ncn[nH]2)cc1", "assay": "microbial growth, broth dilution", "test system": "ATCC29213", "MIC": "256 µg/mL"}
{"Substance": "CC(C)c1ccc(-n2sc3ccccc3c2=O)cc1", "conditions": "panel of 28 strains", "MIC": "≤ 2 µg/mL"}
{"Substance": "CCc1cc(=O)c2c(OCC(O)CNC(C)(C)C)c3ccoc3c(OC)c2o1 (stereo not shown)", "assay": "microbial growth, broth dilution", "test system": "ATCC25", "conditions": "19 h", "MIC": "> 256 µg/mL"}
{"Substance": "CCCCCCC/C=C/C(=O)N1C(=O)/C(=C(\\O)c2ccc(F)cc2)C(=O)C1CC(C)C (stereo not shown)", "assay": "microbial growth, broth dilution", "test system": "MSSA NEWMAN", "MIC": "0.2 µg/mL"}
{"Substance": "O=C(Cc1ccccc1Cl)N1CCC(c2ccccn2)C1 (stereo not shown)", "test system": "various strains incl. MRSA", "MIC": "50 to 200 µg/mL"}
{"Substance": "CCc1cc(=O)c2c(OCC3CO3)c3ccoc3c(OC)c2o1 (stereo not shown)", "assay": "microbial growth, broth dilution", "test system": "ATCC29", "conditions": "19 h", "MIC": "> 256 µg/mL"}
{"Substance": "CC(=O)NC[C@H]1CN(c2ccc(N3CCOCC3)c(F)c2)C(=O)O1", "test system": "ATCC 43300 MRSA", "MIC": "4 µg/mL"}
{"Substance": "CN(C)c1cc(NC(=O)CNC(C)(C)C)c(O)c2c1C[C@H]1C[C@H]3[C@H](N(C)C)C(O)=C(C(N)=O)C(=O)[C@@]3(O)C(O)=C1C2=O", "test system": "MRSA 5, Tet M, 50% human serum", "MIC": "1 µg/mL"}
{"Substance": "O=C(O)c1cccc(-n2c(SCc3ccccc3)nc3ccccc3c2=O)c1", "assay": "broth microdilution", "test system": "ATCC 29213 MSSA", "MIC": "0.125 to 2 µg/mL"}
{"Substance": "CCc1cc(=O)c2c(O)c3ccoc3c(OC)c2o1", "assay": "microbial growth, broth dilution", "test system": "ATCC6538", "conditions": "19 h", "MIC": "64 µg/mL"}
{"Substance": "CN[C@H](CC(C)C)C(=O)N[C@H]1C(=O)N[C@@H](CC(N)=O)C(=O)N[C@H]2C(=O)N[C@H]3C(=O)N[C@H](C(=O)N[C@H](C(=O)O)c4cc(O)cc(O)c4-c4cc3ccc4O)[C@H](O)c3ccc(c(Cl)c3)Oc3cc2cc(c3O[C@@H]2O[C@H](CO)[C@@H](O)[C@H](O)[C@H]2O[C@H]2C[C@](C)(N)[C@H](O)[C@H](C)O2)Oc2ccc(cc2Cl)[C@H]1O", "assay": "microbial growth, broth dilution", "test system": "ATCC29213", "conditions": "16 h", "MIC": "1 µg/mL"}
{"Substance": "CN(C)c1ccc(O)c2c1C[C@H]1C[C@H]3[C@H](N(C)C)C(O)=C(C(N)=O)C(=O)[C@@]3(O)C(O)=C1C2=O", "test system": "MRSA 5, Tet M, 50% human serum", "MIC": "16 µg/mL"}
{"Substance": "C(=Nc1ncn[nH]1)c1ccncc1", "assay": "broth microdilution", "test system": "MRSA2, methicillin-resistant", "conditions": "16 to 24 h", "MIC": "> 256 µg/mL"}
{"Substance": "NC[C@@H]1O[C@H](O[C@H]2[C@@H](O)[C@H](O[C@@H]3[C@@H](O)[C@H](N)C[C@H](N)[C@H]3O[C@H]3O[C@H](CO)[C@@H](O)[C@H](O)[C@H]3N)O[C@@H]2CO)[C@H](N)[C@@H](O)[C@@H]1O", "assay": "microbial growth, broth dilution", "test system": "MRSA", "conditions": "clinical isolate", "MIC": "4 µg/mL"}
{"Substance": "COc1cc(Cc2cnc(N)nc2N)cc(OC)c1OC", "assay": "microbial growth, broth dilution", "test system": "ATCC43300", "conditions": "18 h", "MIC": "0.312 µg/mL"}
{"Substance": "Clc1ccc(C=Nc2ncn[nH]2)cc1", "assay": "broth microdilution", "test system": "MRSA2, methicillin-resistant", "conditions": "16 to 24 h", "MIC": "> 256 µg/mL"}
{"Substance": "CCCCCCC/C=C/C(=O)N1C(=O)/C(=C(\\O)c2ccc(OCOCCOC)cc2)C(=O)C1CC(C)C (stereo not shown)", "assay": "microbial growth, broth dilution", "test system": "MSSA NEWMAN", "MIC": "0.78 µg/mL"}
{"Substance": "CCOC(=O)c1c(N)csc1-c1cn(-c2ccccc2)nc1-c1ccc(C)cc1", "assay": "broth microdilution", "test system": "clinical urinary isolate", "conditions": "compound gamma-irradiated 15 kGy", "MIC": "0.124 ± 0.2 µg/mL"}
{"note": "Repeated from above:"}
{"Substance": "CCc1cc(=O)c2c(OCC(O)CNC(C)C)c3ccoc3c(OC)c2o1 (stereo not shown)", "assay": "microbial growth, broth dilution", "test system": "ATCC29", "conditions": "19 h", "MIC": "> 256 µg/mL"}
{"Substance": "O=C(O)c1cccc(-n2c(SCc3ccccc3)nc3ccccc3c2=O)c1", "assay": "broth microdilution", "test system": "ATCC 29213 MSSA", "MIC": "0.125 to 2 µg/mL"}
{"Substance": "CN(C)c1cc(NC(=O)CNC(C)(C)C)c(O)c2c1C[C@H]1C[C@H]3[C@H](N(C)C)C(O)=C(C(N)=O)C(=O)[C@@]3(O)C(O)=C1C2=O", "test system": "MRSA 5, Tet M, 50% human serum", "MIC": "1 µg/mL"}
{"Substance": "CCc1cc(=O)c2c(OCC(O)CNC(C)(C)C)c3ccoc3c(OC)c2o1 (stereo not shown)", "assay": "microbial growth, broth dilution", "test system": "ATCC25", "conditions": "19 h", "MIC": "> 256 µg/mL"}
